# Experimental data of several laboratories.
# Parts stem from different laboratories: compare values within a part only. “And” joins repeats or separate records; there may be more than shown.

# Study 1 — technique: CellTiter-Glo; concentration: 1 µM; baseline: DMSO
# Cell line: normal-adjacent epithelium patient-derived organoids sample H
SMILES,viability
Cc1cc2c(-c3ccco3)cnc(N[C@H]3CCN(C)C[C@@H]3C(=O)NC3CCCCC3)c2[nH]c1=O,125%
CCOc1cn(-c2ccc(F)cc2C)nc1C(=O)Nc1ccc(Oc2ccnc3cc(OC)c(OC)cc23)c(F)c1,97.4% and 122%
Cc1ccc(NC(=O)Nc2cc(C(F)(F)F)ccc2F)cc1Nc1ccc2c(c1)NC(=O)/C2=C\c1ccc[nH]1,25.5%
O=C(NCc1ccccc1)c1ccc(S(=O)(=O)NCc2ccccc2)cc1,125% and 115%
CN1CCN(Cc2cc(NC(=O)c3ccc4c(c3)CN(c3ccccc3)CC4)cc(C(F)(F)F)c2)CC1,91.8% and 53%
CN(C)C(=O)Cn1cc(-c2ccc(-c3nnc4ccccn34)cc2)cn1,96.8% and 138%
COc1cccc2c1C(=O)c1c(O)c3c(c(O)c1C2=O)C[C@@](O)(C(=O)CO)C[C@@H]3O[C@H]1C[C@H](N)[C@H](O)[C@H](C)O1,14.1%

# Study 2 — cell line: HaCaT; concentration: 100 µM; time: 18 h
Structure (SMILES),viability [%]
COCC(=O)Nc1c(I)c(C(=O)NCC(O)CO)c(I)c(C(=O)N(C)CC(O)CO)c1I (mixture of isomers),110
COc1ccc2c(c1)C(=O)N(CCc1ccc(S(=O)(=O)NC(=O)NC3CCCCC3)cc1)C(=O)C2(C)C,84.5
C#C[C@]1(O)CC[C@H]2[C@@H]3CCc4cc(OC)ccc4[C@H]3CC[C@@]21C,28.2
CC1=C(/C=C/C(C)=C/C=C/C(C)=C\C(=O)O)C(C)(C)CCC1,91.6
Cc1cccc(CN2CCN(C(c3ccccc3)c3ccc(Cl)cc3)CC2)c1 (centres unmarked),72.2
NCCc1ccc(O)c(O)c1,153
Cc1cn(-c2cc(NC(=O)c3ccc(C)c(Nc4nccc(-c5cccnc5)n4)c3)cc(C(F)(F)F)c2)cn1,20.6
Nc1ccccc1S(N)(=O)=O,99.9
NCCc1c[nH]cn1,108
COc1cc2c(cc1OC)CC(=O)N(CCCN(C)C[C@H]1Cc3cc(OC)c(OC)cc31)CC2,113
COc1ccc(NS(=O)(=O)c2ccc(N)cc2)nn1,61.8

# Study 3 — observed: enzyme activity; action: inhibitor; concentration: 0.5 µM; baseline: control
# Target: Serine/threonine-protein kinase 3 (STK3, Homo sapiens, UniProt Q13188)
# Target sequence (Q13188 1-491): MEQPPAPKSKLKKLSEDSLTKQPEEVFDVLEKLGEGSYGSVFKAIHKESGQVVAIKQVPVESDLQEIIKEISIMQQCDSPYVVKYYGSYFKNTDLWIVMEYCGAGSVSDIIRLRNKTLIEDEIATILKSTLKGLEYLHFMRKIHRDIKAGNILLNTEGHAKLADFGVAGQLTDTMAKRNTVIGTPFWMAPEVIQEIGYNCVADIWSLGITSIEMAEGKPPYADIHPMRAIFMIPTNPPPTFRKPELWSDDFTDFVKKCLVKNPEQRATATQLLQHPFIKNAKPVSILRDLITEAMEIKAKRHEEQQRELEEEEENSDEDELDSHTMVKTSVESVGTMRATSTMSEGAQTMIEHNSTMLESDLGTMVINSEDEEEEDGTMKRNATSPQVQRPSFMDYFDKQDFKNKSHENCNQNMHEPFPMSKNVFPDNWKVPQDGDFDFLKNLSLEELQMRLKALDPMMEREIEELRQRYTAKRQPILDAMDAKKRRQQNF
Compound,remaining activity
c1cc(-c2cnn3cc(-c4ccc(OCCN5CCCCC5)cc4)cnc23)ccn1,93.9%
N#CC(c1ccnc(NCCc2cccnc2)n1)c1nc2ccccc2s1 (centres unmarked),98.9%
O=C1NC(=O)/C(=C/c2ccc3c(c2)OC(F)(F)O3)S1,100%
Clc1ccc(Nc2nnc(Cc3ccncc3)c3ccccc23)cc1,92.1%
NC(=O)c1cccc(-c2cc(Nc3ccc(OC(F)(F)F)cc3)ncn2)c1,93.6%
CCN(CC)CCCCN1c2ccccc2Oc2ccc(Cl)cc21,106%
CC(C)n1cnc2c(Nc3cccc(Cl)c3)nc(NCCO)nc21,94.6%
O=C(O)/C=C/c1cc(Br)c(Br)c(Br)c1Br,91.4%
N#C/C(=C(/N)SC1C=CC=CC1)c1cccc(C(O)c2ccncc2)c1 (centres unmarked),97.6%
CC(C)N(CCC(=O)c1ccc2ccccc2c1)Cc1ccccc1,102%
O=c1c(-c2ccc(F)cc2)c(-c2ccncc2)[nH]n1-c1ccc(Cl)cc1,88.3%

# Study 4 — cell line: mouse MPNST tumor cells; technique: high-content immunofluorescence imaging; measured: nuclear SOX9; concentration: 10 µM; time: 12 h; notes: mean of 2 replicates; baseline: DMSO control; reading: higher = more nuclear SOX9
SMILES,nuclear SOX9 intensity
CCN(CC)c1ccc(C=NNC(=O)c2ccc(O)cc2)cc1,131 % of DMSO
c1ccc(C(NCc2cccnc2)(c2ccccc2)c2ccccc2)cc1,106 % of DMSO
O=P(O)(O)C(O)(Cc1cccnc1)P(=O)(O)O,94.3 % of DMSO
CC1CCN(C(c2ccc(F)cc2)c2ccc(C(C)C(=O)O)cc2-c2ccc(C(F)(F)F)cc2)CC1 (centres unmarked),110 % of DMSO
COc1ccc(CNC(=O)c2sc3nc(C)cc(C)c3c2N)cc1,118 % of DMSO
COc1nc(C)nc(Cl)c1NC1=NCCN1,89.9 % of DMSO and 93.5 % of DMSO
Cn1c(=O)c2c(ncn2CCO)n(C)c1=O,98 % of DMSO
COc1cc(Cc2cnc(N)nc2N)c(C(C)C)cc1OC,128 % of DMSO
CN(CC[C@@H](Oc1ccc(-c2ccccc2)cc1)c1ccc(F)cc1)CC(=O)O,97.4 % of DMSO

# Some of these lines once more (study 1):
SMILES,viability
Cc1cc2c(-c3ccco3)cnc(N[C@H]3CCN(C)C[C@@H]3C(=O)NC3CCCCC3)c2[nH]c1=O,125%
CCOc1cn(-c2ccc(F)cc2C)nc1C(=O)Nc1ccc(Oc2ccnc3cc(OC)c(OC)cc23)c(F)c1,97.4% and 122%
Cc1ccc(NC(=O)Nc2cc(C(F)(F)F)ccc2F)cc1Nc1ccc2c(c1)NC(=O)/C2=C\c1ccc[nH]1,25.5%
O=C(NCc1ccccc1)c1ccc(S(=O)(=O)NCc2ccccc2)cc1,125% and 115%
CN1CCN(Cc2cc(NC(=O)c3ccc4c(c3)CN(c3ccccc3)CC4)cc(C(F)(F)F)c2)CC1,91.8% and 53%
CN(C)C(=O)Cn1cc(-c2ccc(-c3nnc4ccccn34)cc2)cn1,96.8% and 138%
